Measurements from different studies.
Parts stem from different laboratories: compare values within a part only. Substitutions count along the parent as printed.

Block 1 — target: CCND3, cyclin fold, Cln2 fusion (human); technique: yeast growth competition, sequencing; medium: yeast; setting: weak parent motif; baseline: not given; direction: higher = stronger binding; starting sequence: viral docking peptide; TSVRRALFTGGSD
Variant	normalised enrichment score
V3R	0.141
R4I	0.0606
L7M	0.221
S12M	0.0345
F8D	0.123
F8Q	0.344
S2P	-0.143
G10W	0.17

Block 2 — effect on: binding; technique: phage display NGS; form: peptide; setting: panning round 2; baseline: input library
Target: UDP-N-acetylglucosamine--peptide N-acetylglucosaminyltransferase 110 kDa subunit (OGT, Homo sapiens, UniProt O15294)
Chain of UniProt O15294 (whole entry, looked up): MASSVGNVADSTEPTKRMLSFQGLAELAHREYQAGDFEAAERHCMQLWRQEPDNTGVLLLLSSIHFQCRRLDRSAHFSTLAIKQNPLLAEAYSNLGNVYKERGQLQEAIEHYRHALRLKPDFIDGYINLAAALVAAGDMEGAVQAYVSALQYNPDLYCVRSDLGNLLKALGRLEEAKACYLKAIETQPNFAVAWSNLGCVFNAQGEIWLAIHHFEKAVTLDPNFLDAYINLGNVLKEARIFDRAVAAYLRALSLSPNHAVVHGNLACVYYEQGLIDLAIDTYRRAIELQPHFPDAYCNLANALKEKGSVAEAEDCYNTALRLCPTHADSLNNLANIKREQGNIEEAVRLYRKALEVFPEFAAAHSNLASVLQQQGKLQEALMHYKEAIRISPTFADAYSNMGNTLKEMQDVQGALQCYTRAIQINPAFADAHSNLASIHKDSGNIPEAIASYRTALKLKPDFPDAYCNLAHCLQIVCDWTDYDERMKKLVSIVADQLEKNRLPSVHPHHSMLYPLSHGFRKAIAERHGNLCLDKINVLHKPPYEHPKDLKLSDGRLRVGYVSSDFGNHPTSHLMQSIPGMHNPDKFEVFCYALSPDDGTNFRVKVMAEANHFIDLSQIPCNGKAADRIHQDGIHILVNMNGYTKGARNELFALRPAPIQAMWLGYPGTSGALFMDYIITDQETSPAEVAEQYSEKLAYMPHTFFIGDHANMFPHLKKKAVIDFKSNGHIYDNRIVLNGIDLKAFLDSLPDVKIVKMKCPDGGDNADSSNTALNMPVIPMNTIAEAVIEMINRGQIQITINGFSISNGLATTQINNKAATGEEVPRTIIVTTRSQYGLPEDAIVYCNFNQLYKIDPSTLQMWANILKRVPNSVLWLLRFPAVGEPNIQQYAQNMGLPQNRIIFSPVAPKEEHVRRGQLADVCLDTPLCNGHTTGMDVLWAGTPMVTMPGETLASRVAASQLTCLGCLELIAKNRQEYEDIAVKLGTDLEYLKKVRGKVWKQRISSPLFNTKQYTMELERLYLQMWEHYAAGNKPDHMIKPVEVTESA
Molecule	minimum log2 enrichment ratio
AQFTPKYMIIPNDWL	4.45
HMPWTHHYAKPYHVG	3.63
WPMKHLHDRWSSHPF	2.29
QVFPPEYWIEYNMV	2.89
SFLKYQPKYPIVYNV	3.85
VTTHSHNHHTMEYNV	2.62
HWGGVHIDHHTVNV	2.84
ERVYDPMYQIRIDFT	2.04

Further values, each from its own experiment
Structure (SMILES)	target or system	test system	setting	scale	measurement	value
CC(C)n1cnc(-c2ccc(F)cc2)c1-c1ncc(C(=O)Nc2ccc(N3CCN(C)CC3)cc2)[nH]1		human, idiopathic pulmonary fibrosis	60 mg once daily, trial, treatment-emergent		patients with influenza-like illness	0%
C[C@]12CC[C@H]3C(=CCc4cc(O)ccc43)[C@@H]1CCC2=O	Plasmodium berghei	Huh-7, liver stage	10 µM, 24 h	baseline: control	parasite load	105%

A few entries again (block 2):
Molecule	minimum log2 enrichment ratio
AQFTPKYMIIPNDWL	4.45
ERVYDPMYQIRIDFT	2.04
